Results gathered from unrelated publications.
Numbered parts are unrelated; each lists some results of a single study. Changes are numbered by the printed parent chain.
Chain of UniProt Q16832 (whole entry, looked up): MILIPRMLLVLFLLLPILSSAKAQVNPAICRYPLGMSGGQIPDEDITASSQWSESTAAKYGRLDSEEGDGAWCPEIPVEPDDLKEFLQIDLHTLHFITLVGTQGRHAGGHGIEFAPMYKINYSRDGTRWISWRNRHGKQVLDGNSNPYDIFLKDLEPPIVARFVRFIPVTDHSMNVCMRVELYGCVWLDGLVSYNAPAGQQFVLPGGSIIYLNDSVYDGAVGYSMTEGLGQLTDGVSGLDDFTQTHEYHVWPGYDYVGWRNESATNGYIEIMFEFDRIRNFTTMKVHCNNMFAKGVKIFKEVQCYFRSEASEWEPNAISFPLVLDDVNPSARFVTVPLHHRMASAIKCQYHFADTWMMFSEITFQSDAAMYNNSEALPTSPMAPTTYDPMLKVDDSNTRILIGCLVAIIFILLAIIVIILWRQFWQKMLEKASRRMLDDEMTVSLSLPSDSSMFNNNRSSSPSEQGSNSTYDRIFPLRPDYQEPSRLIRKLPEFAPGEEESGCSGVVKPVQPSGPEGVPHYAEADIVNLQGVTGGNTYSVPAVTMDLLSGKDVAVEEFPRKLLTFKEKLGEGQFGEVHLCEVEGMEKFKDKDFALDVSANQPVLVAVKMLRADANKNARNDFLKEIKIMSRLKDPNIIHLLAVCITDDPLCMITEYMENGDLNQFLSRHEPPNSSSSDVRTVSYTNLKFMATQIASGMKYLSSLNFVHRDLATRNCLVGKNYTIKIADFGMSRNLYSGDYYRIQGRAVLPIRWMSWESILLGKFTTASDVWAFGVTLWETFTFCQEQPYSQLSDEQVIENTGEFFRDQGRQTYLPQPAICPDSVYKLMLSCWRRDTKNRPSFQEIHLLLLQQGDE
Chain of UniProt Q9Y616 (whole entry, looked up): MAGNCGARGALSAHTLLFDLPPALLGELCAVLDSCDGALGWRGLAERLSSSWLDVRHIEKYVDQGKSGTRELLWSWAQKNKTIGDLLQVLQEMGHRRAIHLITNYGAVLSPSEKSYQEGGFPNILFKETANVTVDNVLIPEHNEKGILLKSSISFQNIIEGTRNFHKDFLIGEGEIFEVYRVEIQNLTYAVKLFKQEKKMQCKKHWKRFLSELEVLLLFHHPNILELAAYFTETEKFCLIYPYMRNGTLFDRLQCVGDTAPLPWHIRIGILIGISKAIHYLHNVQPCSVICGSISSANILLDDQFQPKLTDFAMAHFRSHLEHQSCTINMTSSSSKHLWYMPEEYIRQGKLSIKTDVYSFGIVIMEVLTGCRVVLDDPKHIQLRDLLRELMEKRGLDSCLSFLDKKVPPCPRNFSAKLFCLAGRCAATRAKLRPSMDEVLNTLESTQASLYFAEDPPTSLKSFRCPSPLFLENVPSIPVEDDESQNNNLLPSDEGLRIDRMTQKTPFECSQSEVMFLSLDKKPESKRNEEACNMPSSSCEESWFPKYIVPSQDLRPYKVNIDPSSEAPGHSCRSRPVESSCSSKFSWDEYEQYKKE
Chain of UniProt Q96RR4 (whole entry, looked up): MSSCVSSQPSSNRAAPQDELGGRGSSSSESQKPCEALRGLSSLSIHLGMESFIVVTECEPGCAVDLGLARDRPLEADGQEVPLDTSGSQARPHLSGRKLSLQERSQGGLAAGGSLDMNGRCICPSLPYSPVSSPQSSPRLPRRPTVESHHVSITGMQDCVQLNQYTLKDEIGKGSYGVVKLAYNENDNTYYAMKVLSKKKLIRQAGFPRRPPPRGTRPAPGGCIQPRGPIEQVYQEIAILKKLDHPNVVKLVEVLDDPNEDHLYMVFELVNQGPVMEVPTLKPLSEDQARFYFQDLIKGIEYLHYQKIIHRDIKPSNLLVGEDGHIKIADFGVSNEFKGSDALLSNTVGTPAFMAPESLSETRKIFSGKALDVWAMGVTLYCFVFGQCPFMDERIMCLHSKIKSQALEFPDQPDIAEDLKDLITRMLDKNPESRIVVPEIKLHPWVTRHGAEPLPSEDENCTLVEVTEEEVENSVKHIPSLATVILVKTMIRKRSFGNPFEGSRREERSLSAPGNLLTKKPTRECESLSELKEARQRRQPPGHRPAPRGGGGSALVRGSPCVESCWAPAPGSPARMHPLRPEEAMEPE
Chain of UniProt P51451 (whole entry, looked up): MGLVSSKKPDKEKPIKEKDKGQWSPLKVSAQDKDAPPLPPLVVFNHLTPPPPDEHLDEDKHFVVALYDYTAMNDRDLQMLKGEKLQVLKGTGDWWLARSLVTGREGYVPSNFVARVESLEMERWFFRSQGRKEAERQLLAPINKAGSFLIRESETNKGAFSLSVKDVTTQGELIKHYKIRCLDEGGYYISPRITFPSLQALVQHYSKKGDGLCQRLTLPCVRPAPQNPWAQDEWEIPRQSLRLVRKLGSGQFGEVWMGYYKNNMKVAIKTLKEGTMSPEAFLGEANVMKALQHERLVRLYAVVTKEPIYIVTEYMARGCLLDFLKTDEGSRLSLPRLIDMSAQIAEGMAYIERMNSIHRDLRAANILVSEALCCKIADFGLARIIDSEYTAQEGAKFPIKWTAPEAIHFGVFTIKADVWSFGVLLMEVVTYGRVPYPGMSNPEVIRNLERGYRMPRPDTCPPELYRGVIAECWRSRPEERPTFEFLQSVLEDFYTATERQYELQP
Chain of UniProt Q6XUX3 (whole entry, looked up): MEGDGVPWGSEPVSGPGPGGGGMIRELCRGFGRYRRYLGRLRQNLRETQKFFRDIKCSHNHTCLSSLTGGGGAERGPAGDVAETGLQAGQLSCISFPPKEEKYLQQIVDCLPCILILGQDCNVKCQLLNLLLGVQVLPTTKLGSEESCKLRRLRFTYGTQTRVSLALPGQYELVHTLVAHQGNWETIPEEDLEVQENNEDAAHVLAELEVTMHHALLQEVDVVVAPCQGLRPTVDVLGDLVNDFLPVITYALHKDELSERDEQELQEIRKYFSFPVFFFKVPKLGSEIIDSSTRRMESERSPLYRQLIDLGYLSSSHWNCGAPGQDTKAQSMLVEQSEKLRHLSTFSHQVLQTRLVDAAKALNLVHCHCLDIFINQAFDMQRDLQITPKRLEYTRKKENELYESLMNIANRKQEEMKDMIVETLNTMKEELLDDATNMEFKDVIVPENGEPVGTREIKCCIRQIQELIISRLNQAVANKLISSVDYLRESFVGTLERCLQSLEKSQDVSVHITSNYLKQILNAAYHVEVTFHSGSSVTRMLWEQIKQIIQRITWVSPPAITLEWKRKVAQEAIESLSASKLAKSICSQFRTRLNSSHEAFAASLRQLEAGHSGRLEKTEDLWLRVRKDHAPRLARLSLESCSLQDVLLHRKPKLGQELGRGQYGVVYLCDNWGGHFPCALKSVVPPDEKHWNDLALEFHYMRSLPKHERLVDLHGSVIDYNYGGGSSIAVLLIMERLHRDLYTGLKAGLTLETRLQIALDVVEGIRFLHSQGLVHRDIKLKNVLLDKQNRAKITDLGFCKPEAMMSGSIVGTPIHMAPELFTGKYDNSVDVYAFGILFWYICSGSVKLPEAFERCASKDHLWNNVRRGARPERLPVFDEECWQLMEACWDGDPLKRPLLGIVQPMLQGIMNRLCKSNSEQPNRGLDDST
Chain of UniProt O14730 (whole entry, looked up): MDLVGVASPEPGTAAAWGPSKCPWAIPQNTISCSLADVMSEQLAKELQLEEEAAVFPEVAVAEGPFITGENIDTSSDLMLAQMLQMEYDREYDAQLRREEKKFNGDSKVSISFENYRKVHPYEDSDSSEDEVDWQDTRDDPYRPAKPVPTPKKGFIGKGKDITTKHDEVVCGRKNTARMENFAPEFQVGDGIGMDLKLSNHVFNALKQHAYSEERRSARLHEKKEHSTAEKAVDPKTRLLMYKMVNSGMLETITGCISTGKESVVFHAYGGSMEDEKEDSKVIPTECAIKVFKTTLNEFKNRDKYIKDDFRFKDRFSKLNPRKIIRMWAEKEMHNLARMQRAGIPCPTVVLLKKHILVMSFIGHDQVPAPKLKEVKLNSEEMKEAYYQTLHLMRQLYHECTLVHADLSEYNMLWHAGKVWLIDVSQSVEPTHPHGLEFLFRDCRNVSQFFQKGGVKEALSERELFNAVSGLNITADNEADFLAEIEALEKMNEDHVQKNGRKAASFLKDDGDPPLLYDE
Chain of UniProt P49674 (whole entry, looked up): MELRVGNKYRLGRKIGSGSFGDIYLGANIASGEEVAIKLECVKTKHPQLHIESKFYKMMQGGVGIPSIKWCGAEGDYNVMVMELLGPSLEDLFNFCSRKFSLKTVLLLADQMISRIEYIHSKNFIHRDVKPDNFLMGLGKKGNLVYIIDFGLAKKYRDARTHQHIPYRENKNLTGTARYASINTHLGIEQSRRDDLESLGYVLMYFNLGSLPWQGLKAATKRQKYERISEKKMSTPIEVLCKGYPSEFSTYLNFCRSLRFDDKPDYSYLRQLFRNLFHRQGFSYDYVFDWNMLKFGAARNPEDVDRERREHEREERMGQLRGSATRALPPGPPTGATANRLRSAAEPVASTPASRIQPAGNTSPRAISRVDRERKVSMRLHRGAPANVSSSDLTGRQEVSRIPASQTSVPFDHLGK

Block 1
Target: RNA binding protein fox-1 homolog 2, RRM domain, GST-SBP tag (RBFOX2, Homo sapiens, UniProt O43251-10, residues 100-194)
Technique: RNA Bind-n-Seq
Form: RNA
Medium: in vitro
Tested at: 365 nM
Setting: natural RNA segment, single round, ends assumed
Relative to: no-protein control
Direction: higher = stronger binding
Residues (chain): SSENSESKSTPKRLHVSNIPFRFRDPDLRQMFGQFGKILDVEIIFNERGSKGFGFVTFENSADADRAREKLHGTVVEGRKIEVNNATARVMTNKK
Under “RBNS enrichment (R)”, `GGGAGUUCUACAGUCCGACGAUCUUUUGGCCAACUUCUCCCACUUGAAAUGGGUGUAUUUAGCCAAUGCCUGUACCUCCGUUGUAUCUAGGAAGUAACUAACUAGCCUUUGAUUUUACAGGCUCAUAGGUGGAUGGAAUUCUCGGGUGCCAA` is recorded as 0.542.
Under “RBNS enrichment (R)”, `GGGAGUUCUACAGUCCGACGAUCGGCUGGAACAGCAGAUUUCAGCUACAUAUAUGAACAAAUCCUUUAUUAUUAUUAUAAUUAUUUUUUUGCGUGAAAGUGUUACAUAUUCUUUCACUUGUAUGUACAGAGAGUGGAAUUCUCGGGUGCCAA` is recorded as 0.688.
`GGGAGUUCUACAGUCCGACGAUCCCCUGUGGUCUUUUGUUCAACAUUGUACAAUGUAGAACUCUGUCCAACACUAAUUUAUUUUGUCUUGAGUUUUACUACAAGAUGAGACUAUGGAUCCCGCAUGCCUGAAUUGGAAUUCUCGGGUGCCAA` — result for “RBNS enrichment (R)”: 2.48.
For `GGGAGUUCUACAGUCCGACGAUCAAGGUGACUGGGAAUUGUUACUGUUGUACUUAUUCUAUCUUCCAUUUAUUAUUUAUGUACAAUUUGGUGUUUGUAUUAGCUCUACUACAGUAAAUGACUGUAAAAUUGUCUGGAAUUCUCGGGUGCCAA`, “RBNS enrichment (R)” read 0.667.
`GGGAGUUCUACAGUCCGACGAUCCAGUCUCUGGGAGACUUUCCCUAAGAGGCGACUUCCUCUCCAGCCUUCUCUCUCUGGUCAGGCCCACUGCAGAGAUGGUGGUGAGCACAUCUGGGAGGCUGGUCUCCCUCUGGAAUUCUCGGGUGCCAA` — result for “RBNS enrichment (R)”: 0.302.
For `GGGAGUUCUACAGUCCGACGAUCGGGCUGGGGGUCAGUCCAGCCCGGGCCUCCCAGAACACCAGGCCCGUGUGGGUGGCACCCUGAGGUCAGGGGAUCCUAAGGGUGUCCUUCCAGAGACGGUGUUUCCAGGGUGGAAUUCUCGGGUGCCAA`, “RBNS enrichment (R)” read 0.806.
`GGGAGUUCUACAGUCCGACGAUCUAACCAUUCCUUCCUCCAUCAGCCCCCAGCUUUUUUUCCUGGUAUCUGAGGUCCCAGGAGGAGGCUCAGGAUUCCCUGGUGGGUCUGGAUGUCCCUUGGGUCAGAGGUCAUGGAAUUCUCGGGUGCCAA`: “RBNS enrichment (R)” 0.282.
`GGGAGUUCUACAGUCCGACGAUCAGGACAGCCACCCAGGUCUGCAGCCCCACAAGGCCCUGCUCCUGAUCAGCCUCAGCCAGAGGACGAGGAGGCAGGUGACUGUCAUCAGCCUCGACUGCCACAGAGAAGCAUGGAAUUCUCGGGUGCCAA`: “RBNS enrichment (R)” 3.94.

Block 2
Target: Ras GTPase-activating protein-binding protein 1, full length (G3BP1, Homo sapiens, UniProt Q13283)
Chain of UniProt Q13283 (whole entry, looked up): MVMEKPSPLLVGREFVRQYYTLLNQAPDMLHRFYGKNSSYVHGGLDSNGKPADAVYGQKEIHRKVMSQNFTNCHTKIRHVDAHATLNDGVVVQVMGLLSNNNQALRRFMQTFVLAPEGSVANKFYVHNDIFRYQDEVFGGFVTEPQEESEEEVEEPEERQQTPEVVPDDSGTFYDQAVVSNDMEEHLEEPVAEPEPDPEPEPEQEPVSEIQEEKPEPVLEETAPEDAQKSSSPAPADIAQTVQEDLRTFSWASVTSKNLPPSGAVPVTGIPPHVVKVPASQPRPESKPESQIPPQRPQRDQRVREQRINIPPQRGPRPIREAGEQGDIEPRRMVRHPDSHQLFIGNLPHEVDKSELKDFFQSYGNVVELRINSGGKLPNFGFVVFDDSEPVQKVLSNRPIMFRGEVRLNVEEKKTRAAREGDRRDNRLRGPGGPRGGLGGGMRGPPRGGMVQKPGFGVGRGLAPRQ
Technique: RNA Bind-n-Seq
Form: RNA
Medium: in vitro
Tested at: 200 nM
Setting: whole 134-nt RNA, ends assumed
With: 150 mM KCl
Relative to: input library
Direction: higher = stronger binding
`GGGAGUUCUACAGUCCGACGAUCACCAUGCAGGUGGGCAUCCUUGGGAAGUGGGGCAAGGGGGGGAUAGGGAGGGGGGUAACACUUUGGGAACAGGUGGUCCCAGGUCGUUUCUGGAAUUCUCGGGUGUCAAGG` has a log2 enrichment of 1.36.
With `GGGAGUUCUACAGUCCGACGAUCUGUGCUACACAUCGUAUGUACCGAAUCGGGGAAAAAAAGGGGAAAAAAAGGGGUUUUUGGGGAAAGUAUUAUGUUACGCCGUUCGGAUCUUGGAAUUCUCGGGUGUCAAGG` the log2 enrichment was -0.177.
`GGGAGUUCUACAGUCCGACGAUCGUCCUGUGCUACACAUCGUAUGUACCGAAUCAAAUUUAAACCCCCAAACCCCCCCAAAAAAGUAUUAUGUUACGCCGUUCGGAUCUGCACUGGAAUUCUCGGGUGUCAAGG` gave a log2 enrichment of -0.213.
`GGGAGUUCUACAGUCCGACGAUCUCCUGUGCUACACAUCGUAUGUACCGAAUCGGGUUUUUGGGGUUUUUGGGGUUUUUGGGGAAAGUAUUAUGUUACGCCGUUCGGAUCUGCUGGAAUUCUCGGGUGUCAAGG` gave a log2 enrichment of 0.403.
The log2 enrichment of `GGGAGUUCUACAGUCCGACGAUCUGGCCCUGGUGGCAUGCGGGGAGGAAGAGGUGGCAUCAUGGAUCGUGGUGGUCCCGGUGGAAUGUUCAGAGGUGGCCGUGGUGGAGACAGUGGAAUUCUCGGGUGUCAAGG` is reported as 0.517.
`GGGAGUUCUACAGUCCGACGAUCCAAGUCCUGUGCUACACAUCGUAUGUACCGAAUCGGGGUUUGGUUUGGUUUGGGGAAAGUAUUAUGUUACGCCGUUCGGAUCUGCACUUCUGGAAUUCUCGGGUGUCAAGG` has a log2 enrichment of -0.207.
`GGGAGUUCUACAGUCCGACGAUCUCUUUAUUUGAGCCAGUCUUGCAAGGUUAACUUCUCACUGGGCCUAGUGUGGUGCCCAGGUUUUUGCCUUGCUUCACUUCUGUCUCUACAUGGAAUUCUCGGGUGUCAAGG` has a log2 enrichment of -1.37.
`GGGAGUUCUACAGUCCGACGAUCUGGGAGGUGGAUUUUGUUUAUUUUUUUAGCUCAUUUCCAGGGAUGGGAAUUUUUUUUUAAUAUGUGUCAUGAAUAAAGUUGUUUUUGAAAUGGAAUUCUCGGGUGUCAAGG` gave a log2 enrichment of -0.212.

Block 3
Substitution: L156S
Target: ABI1, truncated, D143A, DHFR fusion (Arabidopsis thaliana)
Technique: DHFR PCA, deep sequencing
Medium: yeast
Setting: methotrexate growth selection, single substitutions
Relative to: wild-type fitted maximum
Direction: higher = stronger binding
Starting sequence: PYL1, truncated, DHFR fusion (Arabidopsis thaliana); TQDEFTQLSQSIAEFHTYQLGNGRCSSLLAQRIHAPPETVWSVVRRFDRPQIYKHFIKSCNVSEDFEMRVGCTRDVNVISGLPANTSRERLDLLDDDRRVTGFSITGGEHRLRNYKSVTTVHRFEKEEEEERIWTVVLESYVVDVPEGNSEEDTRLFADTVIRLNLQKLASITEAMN
For with: (+)-ABA 0.39 µM: “relative binding score” read 23.2%.
The “relative binding score” was 65.8% (with: (+)-ABA 4.8 µM).
with: (+)-ABA 200 µM — “relative binding score”: 95.3%.
The “relative binding score” was 78.8% (with: (+)-ABA 17 µM).
It gave 102% for “relative binding score” (with: (+)-ABA 710 µM).
For with: (+)-ABA 58 µM: “relative binding score” read 81.5%.

Block 4
SMILES: NS(=O)(=O)c1cc(NC(=O)C2(c3ccccc3Cl)CC2)ccc1Oc1cccc(Cl)c1
Read-out: cell-free assay
Technique: competition with immobilised ligand
Tested at: 1 µM
It gave 100% for remaining binding (Receptor-type tyrosine-protein kinase FLT3 (FLT3, Homo sapiens, UniProt P36888, D835V)).
Tyrosine-protein kinase ABL1, phosphorylated (ABL1, Homo sapiens, UniProt P00519) — remaining binding: 88%.
The remaining binding was 100% (Macrophage colony-stimulating factor 1 receptor, autoinhibited (CSF1R, Homo sapiens, UniProt P07333)).
It gave 89% for remaining binding (Calcium/calmodulin-dependent protein kinase kinase 2 (CAMKK2, Homo sapiens, UniProt Q96RR4)).
For Serine/threonine-protein kinase Nek4 (NEK4, Homo sapiens, UniProt P51957): remaining binding read 100%.
The remaining binding was 80% (Tyrosine-protein kinase ABL2 (ABL2, Homo sapiens, UniProt P42684)).
Casein kinase I isoform epsilon (CSNK1E, Homo sapiens, UniProt P49674) — remaining binding: 64%.
It gave 96% for remaining binding (Discoidin domain-containing receptor 2 (DDR2, Homo sapiens, UniProt Q16832)).
For Tyrosine-protein kinase Blk (BLK, Homo sapiens, UniProt P51451): remaining binding read 100%.
The remaining binding was 100% (Receptor-type tyrosine-protein kinase FLT3 (FLT3, Homo sapiens, UniProt P36888, ITD)).
The remaining binding was 75% (Interleukin-1 receptor-associated kinase 3 (IRAK3, Homo sapiens, UniProt Q9Y616)).
The remaining binding was 93% (Dual serine/threonine and tyrosine protein kinase (DSTYK, Homo sapiens, UniProt Q6XUX3)).
For Serine/threonine-protein kinase N2 (PKN2, Homo sapiens, UniProt Q16513): remaining binding read 83%.
Vascular endothelial growth factor receptor 2 (KDR, Homo sapiens, UniProt P35968) — remaining binding: 74%.
It gave 100% for remaining binding (STE20/SPS1-related proline-alanine-rich protein kinase (STK39, Homo sapiens, UniProt Q9UEW8)).
The remaining binding was 62% (Phosphatidylinositol 5-phosphate 4-kinase type-2 beta (PIP4K2B, Homo sapiens, UniProt P78356)).
For Cyclin-dependent kinase 4, with cyclin D3 (CDK4, Homo sapiens, UniProt P11802): remaining binding read 70%.
Ephrin type-B receptor 2 (EPHB2, Homo sapiens, UniProt P29323) — remaining binding: 74%.
For Serine/threonine-protein kinase RIO3 (RIOK3, Homo sapiens, UniProt O14730): remaining binding read 73%.

Single results of other studies
The remaining compound of `Oc1c(-c2nc(-c3cccs3)no2)cnc2ccccc12` is reported as 1.35% (human, microsomes or S9; 2 µM, 0.5 h).
For `FBL (Homo sapiens, UniProt P22087)`, cross-linked residues read “K102 to K197” (UTP11 (Homo sapiens, UniProt Q9Y3A2); cross-linking MS; cell fractions; with: DSSO).

For quick reference, copied from above (block 2):
`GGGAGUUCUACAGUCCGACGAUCUCUUUAUUUGAGCCAGUCUUGCAAGGUUAACUUCUCACUGGGCCUAGUGUGGUGCCCAGGUUUUUGCCUUGCUUCACUUCUGUCUCUACAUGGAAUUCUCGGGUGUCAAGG` has a log2 enrichment of -1.37.
`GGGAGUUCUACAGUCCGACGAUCUGGGAGGUGGAUUUUGUUUAUUUUUUUAGCUCAUUUCCAGGGAUGGGAAUUUUUUUUUAAUAUGUGUCAUGAAUAAAGUUGUUUUUGAAAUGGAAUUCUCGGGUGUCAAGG` gave a log2 enrichment of -0.212.
With `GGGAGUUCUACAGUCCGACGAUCUGUGCUACACAUCGUAUGUACCGAAUCGGGGAAAAAAAGGGGAAAAAAAGGGGUUUUUGGGGAAAGUAUUAUGUUACGCCGUUCGGAUCUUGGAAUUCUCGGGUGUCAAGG` the log2 enrichment was -0.177.
The log2 enrichment of `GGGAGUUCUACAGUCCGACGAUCUGGCCCUGGUGGCAUGCGGGGAGGAAGAGGUGGCAUCAUGGAUCGUGGUGGUCCCGGUGGAAUGUUCAGAGGUGGCCGUGGUGGAGACAGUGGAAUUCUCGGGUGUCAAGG` is reported as 0.517.
`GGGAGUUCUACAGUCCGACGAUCUCCUGUGCUACACAUCGUAUGUACCGAAUCGGGUUUUUGGGGUUUUUGGGGUUUUUGGGGAAAGUAUUAUGUUACGCCGUUCGGAUCUGCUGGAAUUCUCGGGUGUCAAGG` gave a log2 enrichment of 0.403.
